Experimental data of several laboratories.
Numbers after ± are the reported error.

Structure (SMILES)	test system	setting	scale	quantity	result
Cc1ccc(CN2C(=O)/C(=N\c3ccc(Cl)cc3Br)c3ccccc32)cc1	C57 mouse	10 and 20 mg/kg		body and organ weight	no effect
CO.Cc1ccc2c(Cl)cc(Cl)c([O-])c2n1.Cc1ccc2c(Cl)cc(Cl)c([O-])c2n1.[Co+2].c1ccc2nc3c4cccnc4c4ncccc4c3nc2c1	HeLa xenograft, nude mouse	2.0 mg/kg every 2 days		body weight	20.5 ± 1.3 g
Cc1nc2ccc(S(=O)(=O)n3nc(SCc4ccc(Cl)cc4)nc3N)cc2s1	diet-induced obese mouse	dose not given, chronic dosing		body weight	no effect
CCN(CC)C(=O)c1ccc(-c2cc(NCCCN3CCCCC3)c3ccccc3n2)cc1	mouse	food admixture, 0.01, 0.03, 0.05% w/w		body weight	no effect
CC(=O)Nc1ccc(OC(=O)CCC(=O)[O][Pt-2]23([O]C(=O)CCC(=O)Oc4ccc(NC(C)=O)cc4)([NH2+][C@@H]4CCCC[C@H]4[NH2+]2)[O]C(=O)C(=O)[O]3)cc1	BALB/c mouse, 4T1 tumour	dose not given		body weight	no effect
CC(C)CN(CC(=O)N1CCN(CC(OCc2ccc3ccccc3c2)c2ccc(Cl)cc2Cl)CC1)CC(C)C (stereo not drawn)	nude mouse, MDA-MB-231 xenograft	oral gavage, 25, 50, 100 mg/kg/day, 14 days		body weight	stable
O=C([O-])CN1CCN(CC(=O)[O-])CCN(CC(=O)NC[C@H]2CC[C@H](C(=O)N[C@H](Cc3cnc4ccccc4c3)C(=O)NCCCC[C@H](NC(=O)N[C@@H](CCC(=O)O)C(=O)O)C(=O)O)CC2)CCN(CC(=O)[O-])CC1.[64Cu+2]	ICR mouse, male	iv, 37 MBq, 14 days	relative to: saline	body weight	no effect
O=C(NCCN1C(=O)C=CC1=O)[O][Pt-2]12([O]C(=O)NCCN3C(=O)C=CC3=O)([NH2+][C@@H]3CCCC[C@H]3[NH2+]1)[O]C(=O)C(=O)[O]2	BALB/c mouse CT26 allograft	intravenous, equimolar to 9 mg/kg oxaliplatin, twice weekly for two weeks		body weight loss	< 10%
CCC(C)N(C)C(=O)c1nc(-c2cccc(C(F)(F)[18F])c2)c2ccccc2n1 (stereo not drawn)	healthy mouse	intravenous, dose not given, 28 days	relative to: normal saline	body weight	no effect
C#Cc1cccc(Nc2ncnc3cc(OC)c(OCCCN4CCOCC4)cc23)c1	nude mouse, A-431 xenograft	10 and 40 mg/kg/day		body weight	no effect
O=c1[nH]c(N2CCC3(CC2)CN(CCO)c2cc(F)cc(F)c23)nc2c1CCCC2	NOD-SCID mouse, xenograft	oral, 300 mg/kg twice daily	relative to: vehicle	body weight	no effect
COc1ccc2nc(NC(=O)c3ccc(C(N)c4ccccc4)cc3)sc2c1 (stereo not drawn)	mouse xenograft	25 mg/kg twice daily		body weight loss	< 15%
